Measurements from different studies.
Compare with care: the assays were run in different laboratories. Values joined by “and” are separate records of one study, mostly repeats; a detail may differ.
Target: Ephrin type-A receptor 1 (EPHA1, Homo sapiens, UniProt P21709)

`COCC12C(=O)NC3C4(C(OC)CC1O)C1CC5(O)C(OC)C(O)C(OC(C)=O)(C1C5OC(=O)c1ccccc1)C3(O)C(OC)C24` (centres unmarked) has a remaining activity of 116% and 99% (kinase activity, inhibitor, ProQinase kinase profiling; 25 µM; relative to: control).
`Cc1cccc(O[C@H]2CCC[C@@H](C(C)CNCc3ccncc3)C2)c1` (relative stereo) gave an inhibition of -6% (cell-free assay; 10 µM).
The inhibition of `C=CC(=O)Nc1cccc(-c2cnc3[nH]cc(C(=O)NC(C)(C)C)c3n2)c1` is reported as -7% (enzyme activity, inhibitor; 0.1 µM).
`O=C(Cc1ccc(OCc2ccccc2)cc1)NC1(C(=O)O)CCN(C(=O)c2ccc(-c3cccc(Cl)c3)cc2)CC1`: “activity vs control” 108% (enzyme activity, inhibitor; 10 µM).
For `CNC(=O)C[C@H](Cc1ccc(C#N)cc1)NC(=O)c1cc(-c2ccc(CN[C@H](C)c3ccc(C)cc3)o2)ccc1Cl`, “activity vs control” read 106% (enzyme activity, inhibitor; 1 µM).
For `COc1cc(Nc2nccc(-c3cnn4nc(OC)ccc34)n2)cc(C(F)(F)F)c1`, the remaining binding was 100% (binding, competition with immobilised ligand; 1 µM).
For `C=CC(=O)Nc1cc(-c2nn(C3CCN(CCNC(=O)[C@H](C)CCC45CC6CC(CC(C6)C4)C5)CC3)c3ncnc(N)c23)ccc1Oc1ccccc1`, the inhibition was 12.4% (inhibitor, KiNativ profiling; biochemical; 2 µM).
The inhibition of `NC(=O)C[C@H]1CCc2sc3ncnc(O[C@H]4CC[C@H](N5CCOCC5)CC4)c3c21` is reported as 9% (enzyme activity, inhibitor; 10 µM).
With `O=C=[N][Ru-4]123([n]4c5ccc(O)cc5c5c6c(c7cc(F)c[n+]1c7c54)C(=O)NC6=O)[S+]1CC[S+]2CC[S+]3CC1` (centres unmarked) the remaining activity was 107% (enzyme activity; 100 nM, human enzyme, added: 10 µM ATP; relative to: untreated).
For `CC(C)=CC1OC(C)(C)C2C=C3C(=O)C(Cl)=CC(O)C3C3C(O)C4OC4C(=O)C132` (centres unmarked), the remaining binding was 83% (cell-free assay, competition with immobilised ligand; 10 µM).
`C=CC(=O)N1CCc2ccc(-n3c(=O)ccc4cnc5ccc(-c6cnn(C)c6)cc5c43)cc21` has a remaining binding of 100% (KINOMEscan; 1 µM; relative to: DMSO control).
For `C=CC(=O)N1Cc2nc(-c3cc(-c4cc(Cl)cnc4Cl)c(F)cc3F)n(-c3ccncn3)c2C1`, the inhibition was 4.1% (cell-free assay; 1 µM).
With `CCn1cc(C(=O)O)c(=O)c2c(N)c(F)c(NC3CCCCC3)cc21` the inhibition was -3.1% (kinase activity; 0.1 µM, added: ATP at Km).
`Nc1ncc2c(n1)-c1c([nH]c3ccc(C4=CCOCC4)cc13)CCC2` has a remaining binding of 95% (binding, competition with immobilised ligand; 1 µM).

Some of these lines once more:
For `C=CC(=O)Nc1cc(-c2nn(C3CCN(CCNC(=O)[C@H](C)CCC45CC6CC(CC(C6)C4)C5)CC3)c3ncnc(N)c23)ccc1Oc1ccccc1`, the inhibition was 12.4% (inhibitor, KiNativ profiling; biochemical; 2 µM).
